Measurements collected from several papers.
Lines come from different studies, so protocols differ. ± marks the error that the study gave.

| Structure (SMILES) | test | test system | conditions | scale | measurement | value |
| --- | --- | --- | --- | --- | --- | --- |
| CCCC[C@H](NC(=O)CNC(=O)CNC(=O)CN1CCN(CC(=O)O)CCN(CC(=O)O)CCN(CC(=O)O)CC1)C(=O)N[C@H]1CC(=O)NCCCC[C@@H](C(N)=O)NC(=O)[C@H](Cc2c[nH]c3ccccc23)NC(=O)[C@H](CCCNC(=N)N)NC(=O)[C@@H](Cc2ccccc2)NC(=O)[C@H](Cc2c[nH]cn2)NC1=O [copper-64 labelled] | – | female C57 mouse, B16/F1 melanoma | intravenous, 0.037 MBq, 2 h | relative to: tumour over heart | uptake ratio | 2.97 |
| COc1ccc2cc(-c3ccc(-c4ccc(C)cn4)nc3)oc2c1 | – | acetonitrile | zinc(II) complex | – | fluorescence lifetime | 3.33 ns |
| N=C(N)NCCC[C@@H]1NC(=O)[C@H](Cc2c[nH]c3ccccc23)NC(=O)[C@@H](CC2CCCCC2)NC(=O)[C@@H]2CCCN2C(=O)[C@@H](NC(=O)CCc2ccccc2)CCCNC1=O | – | C57BL/6J mouse, spinal cord | oral, 1 mg/kg, single dose, two-compartment model | – | distribution rate constant (K12) | < 0.01 h⁻¹ |
| CC(=O)N([O-])CCCCCNC(=O)CCC(=O)N([O-])CCCCCNC(=O)CCC(=O)N([O-])CCCCCN.[89Zr+4] | radio-iTLC | aqueous buffer | initial, pH 7.0, 37 °C, EDTA challenge, with: 100-fold excess EDTA | – | intact complex | 96.2 ± 0.7% |
| Cc1ccc(OCC(=O)N(Cc2cccs2)c2ccn[nH]2)cc1 | – | male Sprague-Dawley rat, plasma | oral, 30 mg/kg, single dose | – | AUC(0-t) | 6.22 ng·h/mL |
| [11CH3]c1ccc2nc(C3CCC3)n(-c3ccc4[nH]ncc4c3)c2n1 | extrapolated from mouse | human female, stomach wall | – | – | absorbed dose | 6.4 µSv/MBq |
| CC[C@H](C)[C@H](NC(=O)[C@H](CC(C)C)NC(=O)[C@H](Cc1c[nH]c2ccccc12)NC(=O)[C@H](C)NC(=O)[C@@H](NC(=O)[C@H](Cc1ccccc1)NC(=O)[C@H](CC(=O)O)NC(=O)[C@H](CCCNC(=N)N)NC(=O)[C@H](C)NC(=O)[C@H](C)NC(=O)[C@H](CC(C)C)NC(=O)[C@H](C)NC(=O)[C@H](CC(=O)O)NC(=O)[C@H](CC(C)C)NC(=O)[C@@H](NC(=O)[C@@H](NC(=O)[C@H](C)NC(=O)[C@H](CC(C)C)NC(=O)[C@H](CCC(=O)O)NC(=O)[C@H](CO)NC(=O)[C@H](CO)NC(=O)[C@H](Cc1ccccc1)NC(=O)[C@@H](NC(=O)CNC(=O)[C@H](CCC(=O)O)NC(=O)CNC(=O)[C@@H](N)Cc1c[nH]cn1)[C@@H](C)O)[C@@H](C)O)[C@@H](C)CC)[C@@H](C)CC)C(=O)N[C@@H](C)C(=O)N[C@H](C(=O)N[C@@H](CCCCN)C(=O)N[C@H](C(=O)N[C@H](C(=O)N[C@@H](CC(=O)O)C(=O)N[C@@H](CCCCN)C(=O)N[C@@H](CCCCN)C(=O)O)[C@@H](C)O)[C@@H](C)CC)[C@@H](C)O | immunoaffinity LC-MS/MS | healthy human subjects, plasma | subcutaneous, 10 mg once weekly, day 36 after 6 doses, steady state, geometric mean | – | AUCtau | 0.0152 µM·h |
| CC(=O)N[C@H](CSSC[C@H](N)C(=O)O)C(=O)N[C@H](C)C(=O)N[C@H](CCCNC(=N)N)C(=O)N[C@H](CCCNC(=N)N)C(=O)N[C@H](CCCNC(=N)N)C(=O)N[C@H](C)C(=O)N[C@H](CCCNC(=N)N)C(N)=O | – | male human, plasma | intravenous, 5 mg, single dose, healthy volunteers | – | Vd | 159 L |
| Cc1cccc(O[C@H]2CCC[C@@H](C(C)CNCc3ccncc3)C2)c1 (relative stereo) | – | C57BL/6 mouse female, plasma | oral, 25 mg/kg | – | Clast | 1.05 ng/mL |
| CN1CCC[C@]1(C)/C=C/S(=O)(=O)NC(=O)Nc1c2c(cc3c1CCC3)CCC2 | – | human, plasma | oral, 400 mg, single dose, healthy volunteers | – | Cmax | 45100 ng/mL |
| CC[C@H](C)[C@H](NC(=O)[C@@H]1CCCN1C(=O)CNC(=O)[C@H](Cc1ccccc1)NC(=O)[C@H](CC(N)=O)NC(=O)[C@H](CC(N)=O)NC(=O)[C@H](CO)NC(=O)[C@H](CO)NC(=O)[C@H](Cc1c[nH]cn1)NC(=O)[C@@H](NC(=O)[C@H](CC(C)C)NC(=O)[C@H](Cc1ccccc1)NC(=O)[C@H](CC(N)=O)NC(=O)[C@H](C)NC(=O)[C@H](CC(C)C)NC(=O)[C@H](CCCNC(=N)N)NC(=O)[C@H](CCC(N)=O)NC(=O)[C@@H](NC(=O)[C@H](C)NC(=O)[C@@H]1CSSC[C@H](NC(=O)[C@@H](N)CCCCN)C(=O)N[C@@H](CC(N)=O)C(=O)N[C@@H]([C@@H](C)O)C(=O)N[C@@H](C)C(=O)N[C@@H]([C@@H](C)O)C(=O)N1)[C@@H](C)O)C(C)C)C(=O)N[C@@H](CC(C)C)C(=O)N[C@@H](CO)C(=O)N1CCC[C@H]1C(=O)N[C@H](C(=O)N[C@@H](CC(N)=O)C(=O)N[C@H](C(=O)NCC(=O)N[C@@H](CO)C(=O)N[C@@H](CC(N)=O)C(=O)N[C@H](C(=O)N[C@@H](Cc1ccc(O)cc1)C(N)=O)[C@@H](C)O)C(C)C)[C@@H](C)O | ion mobility mass spectrometry | nitrogen drift gas | dimer charge +5, second conformer | – | collision cross section | 891 ± 10.1 Å² |
| CC[C@H](C)[C@@H]1NC(=O)[C@H](Cc2ccccc2)NC(=O)[C@@H](NC(=O)[C@H](CCCNC(=N)N)NC(=O)[C@H](Cc2ccccc2)NC(=O)[C@H](Cc2ccccc2)NC(=O)[C@H](CCCCN)NC(=O)[C@H](CO)NC(=O)[C@H](CC(C)C)NC(=O)[C@H](CCCNC(=N)N)NC(=O)[C@H](CCSC)NC(=O)[C@H](C)N)CCNC(=O)NCCC[C@@H](C(=O)N[C@@H](CCCNC(=N)N)C(=O)N[C@@H](CCCCN)C(=O)N[C@@H](CCCCN)C(=O)O)NC(=O)[C@H](CC(C)C)NC1=O | circular dichroism | 2.5 mM DPC | – | relative to: CSP1-E1A | Tm increase | ~36 °C |
| C[C@H]1Nc2nc(=O)c3[nH]ccc3n2Cc2ccc(Cl)cc21 | – | Sprague-Dawley rat, male, plasma | oral, 125 mg/kg/day | relative to: rat over human 15 mg | exposure ratio | 85 |
| C#CCOc1ccc(/C=C2\SC(=O)N(CC(=O)NCc3ccccc3)C2=O)cc1 | inverse Kirkwood-Buff integrals | binary solvent mixture | 298.15 K, mole fraction x1 0.50 | – | Kirkwood-Buff integral G1,3 | -261 cm³/mol |
| C[C@]12C[C@H](c3ccc(S(C)(=O)=O)cc3)C3=C4CCC(=O)C=C4CC[C@H]3[C@@H]1CC[C@@]2(O)C(F)(F)C(F)(F)F | – | rat liver microsomes | 100 % absorption assumed | – | maximal oral bioavailability | 87% |
| CC(C)(F)CC(NC(c1ccc(-c2ccc(S(C)(=O)=O)cc2)cc1)C(F)(F)F)C(=O)NCC#CBr (stereo not drawn) | LC-MS UV trace | aqueous buffer | concentration not given, 23 h, pH 5.5, 37 °C, with: cysteine 10 mM | – | cysteine adduct formation | < 1% |
| C[C@]12C[C@H](c3ccc(-c4ccc(C(=O)O)cc4)cc3)C3=C4CCC(=O)C=C4CC[C@H]3[C@@H]1CC[C@@]2(O)C(F)(F)C(F)(F)F | – | rat, plasma | – | – | fraction unbound | 0.007 |

| Structure (SMILES) | test | test system | conditions | scale | measurement | value |
| --- | --- | --- | --- | --- | --- | --- |
| CSCOC1C(=O)C2(C)C(OCSC)CC3OCC3(OC(C)=O)C2C(OC(=O)c2ccccc2)C2(O)CC(OC(=O)C(O)C(C=C(C)C)NC(=O)OC(C)(C)C)C(C)=C1C2(C)C (stereo not drawn) | – | male Sprague-Dawley rat, plasma | intravenous, 4 mg/kg | – | AUC(0-t) | 941 ng·h/mL |
| N#Cc1nc(N2CCOCC2)nc(N(Cc2ccc(F)cc2)CC2CCCNC2)n1 (stereo not drawn) | – | female CD-1 mice | intraperitoneal, 10 mg/kg, 2 h | – | brain concentration | 32 ng/g |
| CCCCN1C(=O)c2cccc3c(NCCCCCCN4CCOCC4)ccc(c23)C1=O | – | aqueous medium | pH 6 | – | average fluorescence lifetime | 4.2 ns |
| Cn1c(=O)oc2ccc(-c3ccc(CC(C#N)NC(=O)C4CNCCCO4)c(F)c3)cc21 (stereo not drawn) | refers to: macule | human | 80 mg single dose, fasted | – | subjects with TRAE | 16.7% |
| CC(C)[C@H](NC(=O)[C@@H]1CCCN1C(=O)[C@H](CCCNC(=N)N)NC(=O)[C@H](CS)NC(=O)[C@H](Cc1c[nH]c2ccccc12)NC(=O)[C@H](CCCNC(=N)N)NC(=O)[C@@H](Cc1ccccc1)NC(=O)[C@H](Cc1c[nH]cn1)NC(=O)[C@H](CCC(=O)O)NC(=O)[C@H](CS)NC(=O)[C@H](CS)NC(=O)[C@@H]1CC(=O)N[C@@H](CCCNC(=N)N)C(=O)NCC(=O)N[C@@H](CC(=O)O)C(=O)N[C@H](Cc2ccc(O)cc2)C(=O)N1)C(N)=O [technetium-99m labelled] | – | C57 mice B16/F1 melanoma female, urine | iv, 0.037 MBq, 2 h | – | excretion | 74.6 ± 4.55% |
| Cc1ncc2c(n1)CN(C(=O)Nc1nc(-c3cccs3)ccc1N)C2 | – | male Sprague-Dawley rats | oral, 45 mg/kg daily, day 14 | – | AUC | 13200 ± 4760 ng·h/mL |
| CCCC[C@H](NC(=O)CNC(=O)CNC(=O)CN1CCN(CC(=O)O)CCN(CC(=O)O)CCN(CC(=O)O)CC1)C(=O)N[C@H]1CC(=O)NCCCC[C@@H](C(N)=O)NC(=O)[C@H](Cc2c[nH]c3ccccc23)NC(=O)[C@H](CCCNC(=N)N)NC(=O)[C@@H](Cc2ccccc2)NC(=O)[C@H](Cc2c[nH]cn2)NC1=O [indium-111 labelled] | – | C57 mouse, B16/F1 melanoma | 4 h | relative to: tumour over skin | tumour to skin uptake ratio | 68.9 |
| CCCCCC(C)NCC(=O)O (stereo not drawn) | shake flask | water | 24 h | – | logP | -0.17 |
| CCOc1ccc2c(c1)C(C)=CC(C)(C)N2c1cc(OCC)cc2c1NC(C)(C)C=C2C | LC-MS/MS | piglets, kidney | oral in feed, 50 mg/kg feed ethoxyquin, 42 days | – | tissue residue | 21.3 ± 6.5 ng/g |
| Cc1ccc(C(C)C)cc1.O=C(N=P(c1ccccc1)(c1ccccc1)c1ccccc1)c1ccccn1.[Cl-].[Cl-].[Ru+2] | refers to: ruthenium | NOD scid mice, plasma | intraperitoneal, 5 mg/kg, after first injection | – | AUC total | 54500 ng·h/mL |
| O=[11C](OC(C(F)(F)F)C(F)(F)F)N1CCC(CNS(=O)(=O)c2ccc(Cl)cc2)CC1 | PET | Sprague-Dawley rat, cerebral cortex | intravenous | – | uptake | 1.75 SUV |
| CC(=O)Nc1ncc(CN2CC[C@H](Oc3cccc([18F])n3)C[C@@H]2C)s1 | – | human, plasma | dose not given, 3 h | – | unchanged parent | 20 to 30% |
| CN(O)C(=O)CCC(=O)NCCCN(CCCCN(CCCNC(=O)CCC(=O)N(C)O)C(=O)CCC(=O)N(C)O)C(=O)CCC(=O)N(C)O.[89Zr] | – | mouse, bone | 4 h | – | tracer uptake | 0.02 %ID/g |
| CC(C)[C@H](NC(=O)CNC(=O)[C@H](CCC(N)=O)NC(=O)[C@H](C)N)C(=O)O | LC-MS/MS | human, male, plasma | intravenous, 20 mg/kg three times daily, day 2, first dose, 10 min infusion, geometric mean | – | volume of distribution | 10 L/kg |
| CCCC[C@@H]1NC(=O)[C@@H](NC(=O)[C@H](CCC(=O)O)NC(=O)CNC(=O)CN2CCN(CC(=O)O)CCN(CC(=O)O)CCN(CC(=O)O)CC2)CCCCNC(=O)C[C@@H](C(N)=O)NC(=O)[C@H](C(C)C)NC(=O)[C@@H]2CCCN2C(=O)[C@H](CCCNC(=N)N)NC(=O)CNC(=O)[C@H](Cc2c[nH]c3ccccc23)NC(=O)[C@H](CCCNC(=N)N)NC(=O)[C@@H](Cc2ccccc2)NC(=O)[C@H](Cc2c[nH]cn2)NC(=O)[C@H](CCC(=O)O)NC1=O [gallium-67 labelled] | – | normal C57 mice | intravenous, 0.037 MBq, 2 h | – | urine excretion | 85.8 ± 3.76% |
| Cc1ccc(OCC(=O)Nc2cc[nH]n2)cc1 | LC-MS EIC | dog liver microsomes, pooled, both sexes | 10 µM, 60 min | relative to: reference compound at start | relative peak area | 5.14% |
